Assay results of several laboratories.
Numbered parts are unrelated; each lists some results of a single study.

Study 1 — method: competition protein-binding microarray; form: double-stranded DNA, one strand shown; sample: in vitro; concentration: 2 µM; together with: Cbf1 competitor, 0.05 µM; direction: higher = stronger binding; all sequences stand within: … GTCTTGATTCGCTTGACGCTGCTG
Target: Phosphate system positive regulatory protein PHO4, full length, GST-tagged (PHO4, Saccharomyces cerevisiae, UniProt P07270, residues 1-312)
Setting: whole 60-bp probe, lowest competitor level
Construct (chain): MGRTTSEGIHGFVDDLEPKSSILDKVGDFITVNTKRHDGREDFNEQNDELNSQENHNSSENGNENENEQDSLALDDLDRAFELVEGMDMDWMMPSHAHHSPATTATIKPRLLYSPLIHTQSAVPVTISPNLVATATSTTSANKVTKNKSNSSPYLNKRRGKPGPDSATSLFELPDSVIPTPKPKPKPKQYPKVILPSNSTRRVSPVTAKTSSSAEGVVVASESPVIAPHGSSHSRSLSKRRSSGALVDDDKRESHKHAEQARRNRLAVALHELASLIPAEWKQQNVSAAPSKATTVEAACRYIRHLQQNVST
| Oligonucleotide | fluorescence intensity [a.u.] |
| --- | --- |
| CTAACGAAGGTTTGCAACGTGGGTGACAAGCCAAGT | 12800 |
| CATACCCAACCTTGCTTCGTGGGTGAAGATATTTGT | 7080 |
| GTTTGACTACGTACGACCGTGCCAGACTTGCCGATG | 6460 |
| GTCTTGTCTCATTGCAAAGTGGGTGTCCCCACTTCA | 5210 |
| TTGCGCTAACGAAACCACATGGATCCTCCACACAAC | 7730 |
| AGCGGAGTTTCGAATTCCGTGTCCTTCTGAGCGTAT | 3890 |
| AAATTACTAAGTTGGTCTGTGGGTGACGCCGTATGA | 3760 |
| GTCTTGTCTCATTGCTCGGTGGGTGTCCCCACTTCA | 4570 |
| CTAACGAAGGTTTGAGTTGTGGGTGACAAGCCAAGT | 3770 |
| GTTGAGGTGAACCAGCTCGTGGAGTAGACCGTTGAG | 8390 |
| ATGAAACCACTTTAGCACGATGAAATAGCAATATGT | 8660 |
| TTGAGAAGTGGGACCCACGTGCCACTCCCTGTTCTG | 20500 |
| CATACGCGTTCGCTTCACGTGATGGTCCTTTTCCAT | 12500 |
| AAAGCGGTAATTTGAGTAGTGGGTGCAGATATCTAT | 4670 |
| CGAGAATGTCCGGAACACATGTCAATATTTGCTCCT | 9800 |
| CGGAAGGGAGATCCGCACGTGACGGTTGAAAAAGGG | 14800 |
| GAGAAACTATTACAGCACGTGAAATCCTTGCCTATG | 13900 |

Study 2 — method: protein binding microarray; form: double-stranded DNA, one strand shown; sample: in vitro; concentration: not given; baseline: not given; direction: higher = stronger binding
Target: Histone acetyltransferase KAT6A, winged helix 2, GST fusion (KAT6A, Homo sapiens, UniProt Q92794, residues 85-181)
Setting: 8-mer, flanks averaged, mean of 2 arrays, mostly near background
Target sequence (chain): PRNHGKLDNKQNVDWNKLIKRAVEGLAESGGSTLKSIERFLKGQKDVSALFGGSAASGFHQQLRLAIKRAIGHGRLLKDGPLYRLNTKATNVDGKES
| Oligonucleotide | E-score |
| --- | --- |
| AGTATGAT | -0.103 |
| CTCAGCTA | -0.0639 |
| ATGACGTA | -0.0524 |
| CTTCCCTA | -0.175 |
| GCGGTCCC | 0.197 |
| CAGTTTCC | 0.0281 |
| GTTTGTGA | 0.137 |
| CGATTCCA | 0.113 |
| CGGGCCAC | 0.0625 |
| CACACAGC | 0.027 |
| ATCCGTAA | -0.156 |
| CGGATCTA | 0.0588 |
| ACTCCGGA | 0.162 |
| CCAGTCAA | -0.112 |
| TCACAGGA | -0.1 |
| TAAAACGA | 0.0485 |
| GCTAGTAC | 0.0471 |
| GAAACGCA | 0.0248 |
| GGGTGCGA | -0.126 |
| ATATGATA | 0.167 |
| CGACGGCA | 0.0515 |
| CTTGCTGC | 0.0897 |
| CGTGCTCC | 0.086 |
| AGACCCAA | 0.0988 |
| AGTTTTTC | -0.0295 |

Study 3 — method: aptamer microarray, sandwich; form: DNA with 2'F-ANA; sample: in vitro; concentration: 200 nM; together with: Cy3 exosite-II aptamer, 400 nM; direction: higher = stronger binding; oligonucleotide: GGTTGGTGTGGTTGG
Target: Prothrombin, mature alpha-thrombin (F2, Homo sapiens, UniProt P00734)
Setting: whole 15-mer aptamer, many near background
| Modification | mean fluorescence intensity |
| --- | --- |
| 2'F-ANA at 1 3 6 7 8 9 10 11 13 15 | 79.5 a.u. |
| 2'F-ANA at 1 2 13 15 | 136 a.u. |
| 2'F-ANA at 1 3 7 8 9 10 12 14 15 | 122 a.u. |
| 2'F-ANA at 1 3 5 8 11 12 13 14 | 49.4 a.u. |
| 2'F-ANA at 3 4 6 8 11 12 13 14 | 267 a.u. |
| 2'F-ANA at 1 2 3 6 7 8 10 14 15 | 108 a.u. |
| 2'F-ANA at 3 4 5 9 10 14 15 | 47.8 a.u. |
| 2'F-ANA at 2 5 7 8 9 10 11 12 13 14 | 64.8 a.u. |
| 2'F-ANA at 1 6 7 9 10 11 15 | 61.2 a.u. |
| 2'F-ANA at 1 2 3 5 7 10 12 | 49 a.u. |
| 2'F-ANA at 2 3 5 8 9 13 | 78.7 a.u. |
| 2'F-ANA at 3 5 6 7 8 11 12 13 14 15 | 69.6 a.u. |
| 2'F-ANA at 2 4 6 10 12 13 14 15 | 68 a.u. |
| 2'F-ANA at 1 5 11 12 15 | 82.1 a.u. |
| 2'F-ANA at 1 2 7 11 12 14 | 78.4 a.u. |
| 2'F-ANA at 1 3 4 5 7 9 10 11 12 13 14 | 67.7 a.u. |

Study 4 — method: RNA Bind-n-Seq; form: RNA; sample: in vitro; concentration: not given; baseline: input RNA pool; direction: higher = stronger binding
Target: RING finger protein unkempt homolog, zinc fingers 1-6, GST-SBP tag (UNK, Homo sapiens, UniProt Q9C0B0, residues 30-357)
Setting: RNA with constant flanks, human-mouse chimeric sites, ends assumed
All sequences stand within: GGGAGUUCUACAGUCCGACGAUC … CAACAGAGGAUUGAGCAUCA
Construct (chain): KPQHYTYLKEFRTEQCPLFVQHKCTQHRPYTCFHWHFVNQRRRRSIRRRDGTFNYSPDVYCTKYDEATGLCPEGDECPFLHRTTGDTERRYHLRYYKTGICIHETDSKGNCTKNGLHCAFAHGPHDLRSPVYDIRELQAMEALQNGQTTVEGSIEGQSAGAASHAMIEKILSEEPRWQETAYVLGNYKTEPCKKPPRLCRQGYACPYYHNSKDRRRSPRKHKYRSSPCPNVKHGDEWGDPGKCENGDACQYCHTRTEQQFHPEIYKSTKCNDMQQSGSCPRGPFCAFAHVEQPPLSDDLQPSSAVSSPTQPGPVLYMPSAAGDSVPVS
| Oligonucleotide | bound/input enrichment [ratio] |
| --- | --- |
| UAAGUUAUUUUGUACAGCUUUGUAAAUUCUUAACAUUUUUAUAUUGCCAUGUUUAUUUUUUUUAGAUAAUUUGGUUCAUUAAGUACAAAACCAAAUAAAUGAACAUCUUUUUCAGUAAUU | 3.5 |
| CAGGGCAUCAUCUCUCGUGCUGUUAGACACCUGUUCAAGAGUAUUGAUGAGAAAAAGACCUCAGCGAUUAAAAACGGGCUUCCUGCUCCUGAAUUCAAAGUGAAUGCCCAAUUCUUAGAG | 0.223 |
| CCAAUUGUGGAGCAGUACUUGAAGACAAAGAAAAAUUCUAAUAAUUUAAUCAUGAAAUACAUUAGCUGCCGCCUGCUGACAUUUGUGAUUAUACUGUUAGCGUGUAUCUACCUGGGCUAU | 0.4 |
| GGAAGUACAUUAAUGGAAAUAGAUGGCGACAAAGGCAAGCAGGGCGGGCCCACCUACUACAUAGACACCAAUGCCCUCCGCGUGCCCAGGGAGAACAUGGAGGCCAUCUCACCACUCAAG | 0.309 |
| GAACCUGCUCUCUCUGAAGAAGAGGAAGAAGACAAUGAUGAUGUUGAACCCAUUUCUGAAUUUCGAUUUGUGCCCAGUGAUAAGUCAGCAUUGGAGGCGAUGUUCACAGCAAUGUGUGAG | 0.273 |
| UCAUUUUGCUCGGGUUAUUCUUUCCUUUAGGAAAAGCAGAUUAGACUGGUUGUAAGAAAAACAGAAGCCAUGUUUCGAAGACCUGUGUUACAGGUAUUUCGUCAGUUUGUAAGACAUGAG | 1.18 |
| ACACAAUAUGAGACCAACAGCAUGGACUUCAAAGUUGGGGCAGAUGGGACAGUCUUCGCCACCCGGGAGUUGAAGAUCCCCUCCGAGCAGGUGGCCUUCACGGUGACUGCAUGGGACAGC | 0.263 |
| ACAGUUAUAUUGUUGAGUUUCAUUUUCUUGUAUGUUUGUAGUGUCUGCUUGCCUGUGACUUCUGGUAAAAUAAAAUAAGCCUUUGAAAAUAUUUUAGCAUGGUAUUUAACAUUUUCUAAA | 0.764 |
| AUCAAAUACUUUGGGGACAUCAUUAGUGUGGGACAGAGACUGUUGCAAGGGGCCCGGAUCUUAGGGAUUCCUGUUAUCAUAACGGAACAAUACCCCAAAGGACUUGGCAGCACCGUUCAA | 0.199 |
| GACAGUGAAGGCCCACUGUGUGAAUUGCUUUUUUUCUUCCUGACUGCAAUCUUCCAGGCGAUGGCUGAAGAAGAGGAGGAAGUAGCCAAAGAGCAACUAACUGAUGCUGACACCAAAGAU | 0.0694 |
| CAGCCUCAGAGCCCAGACUUCCUGGAUAUUACCAACCCCAAAGCCGUAUUAGAAAAUGCAUUGAGAAACUUCGCCUGUCUGACCACCGGAGAUGUGAUUGCUAUCAACUACAAUGAGAAG | 0.547 |

Study 5 — method: universal PBM; form: double-stranded DNA, one strand shown; sample: in vitro; concentration: not given; direction: higher = stronger binding
Target: Sal-like protein 4, full length isoform B (SALL4, Homo sapiens, UniProt Q9UJQ4-2, residues 1-616)
Setting: 8-mer, flanks averaged, mean of replicates
| Oligonucleotide | E-score |
| --- | --- |
| GATCCCAA | -0.117 |
| ATTTGTTC | 0.267 |
| ACTGCGCG | -0.309 |
| CTGGTTCA | -0.0887 |
| AAGTAACC | 0.0609 |
| TCACGTCA | -0.0448 |
| TCTCATAA | 0.307 |
| GACATTGC | 0.082 |
| AGTAACCG | -0.0901 |
| CTACACAG | 0.017 |
| CTGTGCGC | -0.366 |
| GTGAAAAA | 0.249 |
| AGTCAAGG | -0.0635 |
| AGATCAAT | 0.125 |
| GCGACTCA | -0.147 |
| GGTCTTAC | -0.126 |
| AACACCTC | -0.0373 |
| GAGTATCA | 0.0655 |
| GTGACAGA | -0.0815 |
| GTTAGTGA | 0.139 |
| CTCGATCC | -0.119 |
| CGTTCACA | 0.0544 |
| ACACAGCG | -0.0356 |
